Assay results of several laboratories.
Protocols differ between the studies behind these lines. Converted amounts (≈) assume the structure as drawn.

Compound | test system | conditions | endpoint | result
COc1ccc(CNC[C@](O)(COCc2ccccc2)[C@@H]2CC[C@@H](C)C[C@H]2OCc2ccccc2)cc1 | PBS | 2 h, pH 7.4 | kinetic solubility | 3.2 µM (≈ 1.61 µg/mL)
Cc1ccc(NC(C)(C)C(=O)Nc2ccc(F)c(Cl)c2)cc1S(=O)(=O)N1CC2(COC2)C1 | water | – | kinetic solubility | 167 µM (≈ 80.5 µg/mL)
CCC/C(=C\C1=C(C(F)(F)F)C(=O)c2ccccc2C1=O)C(=O)N(CC)CC | FeSSIF | 24 h, 37 °C | thermodynamic solubility | 0.081 mg/mL
CCNCC#CCNc1ccnc2cc(Cl)ccc12 | PBS | pH 7.4 | thermodynamic solubility | 1350 µM
Cc1ccc(NCC(=O)Nc2ccc(F)c(Cl)c2)cc1S(=O)(=O)N1CC2CCC(C1)O2 | water | – | kinetic solubility | 79 µM (≈ 37 µg/mL)
COc1cccc(CNC[C@](O)(COCc2ccccc2)[C@@H]2CC[C@@H](C)C[C@H]2OCc2ccccc2)c1 | PBS | 2 h, pH 7.4 | kinetic solubility | 40.9 µM (≈ 20.6 µg/mL)
Cc1ccc(NCC(=O)Nc2cnccn2)cc1S(=O)(=O)N1CCOCC1 | water | – | kinetic solubility | 55 µM (≈ 21.5 µg/mL)
C[N+](C)(C)CCO.O=C(O)[C@@H](O)Cc1ccccc1.O=C([O-])[C@@H](O)Cc1ccccc1 | water | – | solubility | 1250 mg/mL
C[C@@H]1CC[C@@H]([C@@](O)(CNCc2ccc(F)cc2)COCc2ccc(F)cc2)[C@H](OCc2ccc(F)cc2)C1 | PBS | 2 h, pH 7.4 | kinetic solubility | 197 µM (≈ 104 µg/mL)
Cc1cnc(Nc2cc(C)c(C)c(C)c2)nc1Nc1ccc2oc(=O)[nH]c2c1 | aqueous buffer | pH 7.4 | thermodynamic solubility | 0.03 µM
CCC/C(=C\C1=C(OC)C(=O)c2ccccc2C1=O)C(=O)NOC | FaSSIF | 24 h, 37 °C | thermodynamic solubility | 0.385 mg/mL
C[C@@H]1CC[C@@H]([C@](O)(CNCc2ccc(F)cc2)COCc2ccccc2)[C@H](OCc2ccccc2)C1 | PBS | 2 h, pH 7.4 | kinetic solubility | 1.1 µM (≈ 0.541 µg/mL)
Cc1ccc(NCC(=O)Nc2ccc(F)c(Cl)c2)cc1S(=O)(=O)N1CCCCC1 | water | – | kinetic solubility | 55 µM (≈ 24.2 µg/mL)
C[C@@H]1CC[C@@H]([C@](O)(COCc2ccccc2)Cn2cnc3ccccc32)[C@H](OCc2ccccc2)C1 | PBS | 2 h, pH 7.4 | kinetic solubility | 1.6 µM (≈ 0.775 µg/mL)
O=C(CNc1cccc(S(=O)(=O)N2CCOCC2)c1)Nc1ccc(F)c(Cl)c1 | water | – | kinetic solubility | 187 µM (≈ 80 µg/mL)
COc1ccc(COC[C@](O)(CNCc2ccc(F)cc2)[C@@H]2CC[C@@H](C)C[C@H]2OCc2ccc(OC)cc2)cc1 | PBS | 2 h, pH 7.4 | kinetic solubility | 124 µM (≈ 68.4 µg/mL)
Cc1ccc(NCC(=O)Nc2ccon2)cc1S(=O)(=O)N1CCOCC1 | water | – | kinetic solubility | > 250 µM
CCC/C(=C\C1=C(F)C(=O)c2ccccc2C1=O)C(=O)N(CC)CC | FeSSIF | 24 h, 37 °C | thermodynamic solubility | 0.05 mg/mL

For quick reference, copied from above:
Compound | test system | conditions | endpoint | result
C[C@@H]1CC[C@@H]([C@](O)(CNCc2ccc(F)cc2)COCc2ccccc2)[C@H](OCc2ccccc2)C1 | PBS | 2 h, pH 7.4 | kinetic solubility | 1.1 µM (≈ 0.541 µg/mL)
CCC/C(=C\C1=C(C(F)(F)F)C(=O)c2ccccc2C1=O)C(=O)N(CC)CC | FeSSIF | 24 h, 37 °C | thermodynamic solubility | 0.081 mg/mL
